# Measurements gathered from unrelated publications.
# Each line is one published result; not all experiments were run side by side.
# Target: Myosin-IIIa (MYO3A, Homo sapiens, UniProt Q8NEV4)
Compound,assay,setting,how to read,quantity,value
Nc1ncc2c(n1)-c1c([nH]c3ccc(C4=CCOCC4)cc13)CCC2,"binding, competition with immobilised ligand",1 µM,,remaining binding,88%
Nc1ncc(-c2cc(-c3cnn(CC(F)(F)F)c3)ncc2F)nc1C(=O)NC1CNCC(F)C1 (stereo not drawn),enzyme activity,1 µM,baseline: DMSO control,remaining activity,79.9%
CCn1cc(C(=O)O)c(=O)c2c(N)c(F)c(NC3CCCCC3)cc21,kinase activity,"0.1 µM, together with: ATP at Km",,inhibition,12.8%
C=CC(=O)N1Cc2nc(-c3cc(-c4cc(Cl)cnc4Cl)c(F)cc3F)n(-c3ccncn3)c2C1,cell-free assay,1 µM,,inhibition,6%
COc1cc(Nc2nccc(-c3cnn4nc(OC)ccc34)n2)cc(C(F)(F)F)c1,"binding, competition with immobilised ligand",1 µM,,remaining binding,54%
CNC1C[S+]2CC[S+]3CC[S+](C1)[Ru-4]321([N]=C=S)[n]2c3ccc(OC)cc3c3c4c(c5cc(F)c[n+]1c5c32)C(=O)NC4=O (stereo not drawn),KinomeScan,0.1 µM,baseline: untreated,remaining binding,92%
COc1cc(Nc2nc(C)cc(-c3cnn4nc(OC)ccc34)n2)cc(C(F)(F)F)c1,inhibitor,1 µM,baseline: control,remaining activity,87%
C=CC(=O)N1CCc2ccc(-n3c(=O)ccc4cnc5ccc(-c6cnn(C)c6)cc5c43)cc21,KINOMEscan,1 µM,baseline: DMSO control,remaining binding,100%
CC(C)=CC1OC(C)(C)C2C=C3C(=O)C(Cl)=CC(O)C3C3C(O)C4OC4C(=O)C132 (stereo not drawn),"cell-free assay, competition with immobilised ligand",10 µM,,remaining binding,84%
Cc1cnc2nc1Nc1cccc(c1)COC/C=C/COCc1cc(ccc1OCCN1CCOCC1)N2,binding,0.1 µM,,remaining binding,95%
CCN1CCN(Cc2ccc(C(=O)Nc3ccc(C)c(NCc4cnc5[nH]ccc5c4OC)c3)cc2C(F)(F)F)CC1,"binding, competition with immobilised ligand",1 µM,,remaining binding,41%
CNC(=O)C1CCN(c2cc(C)c(F)cc2NC(=O)c2ccc(-c3cc(O)ccc3C)c(C)c2)CC1,"binding, competition with immobilised ligand",1 µM,,remaining binding,100%
COc1c(Cl)cccc1Nc1c(-c2ccncc2C#C[C@@]2(C)CCCN2C(=O)/C=C/CN(C)C)[nH]c2c1C(=O)NCC2,"binding, competition with immobilised ligand",3 µM,,remaining binding,92%
CN1CCN(Cc2ccc(-c3ccc(CO[C@H]4CCC[C@@H]4NC(=O)c4cc(-c5cnn(C)c5)cnc4N)cc3)cc2)CC1,"enzyme activity, inhibitor",0.1 µM,,inhibition,-2%
C=CC(=O)N1CCCC(n2c(=O)c3ncccc3n(Cc3ccc(Oc4ccccc4)cc3)c2=O)C1 (stereo not drawn),"cell-free assay, competition with immobilised ligand",1 µM,,remaining binding,100%

# Excerpt of the above:
Compound,assay,setting,how to read,quantity,value
C=CC(=O)N1Cc2nc(-c3cc(-c4cc(Cl)cnc4Cl)c(F)cc3F)n(-c3ccncn3)c2C1,cell-free assay,1 µM,,inhibition,6%
